Experimental data of several laboratories.
Compare with care: the assays were run in different laboratories. ± gives the spread as reported. Non-standard residues stand in square brackets, D forms with d. Square brackets hold non-standard residues; d marks the D form. Ends that are not written are not given here. No end group written: not given here. * marks the point of attachment. *: point of attachment.
ERBB2: ERBB2 fragment (Homo sapiens)
T1: STAG2/RAD21 STAG2 80-1060, RAD21 281-420 (Homo sapiens); chain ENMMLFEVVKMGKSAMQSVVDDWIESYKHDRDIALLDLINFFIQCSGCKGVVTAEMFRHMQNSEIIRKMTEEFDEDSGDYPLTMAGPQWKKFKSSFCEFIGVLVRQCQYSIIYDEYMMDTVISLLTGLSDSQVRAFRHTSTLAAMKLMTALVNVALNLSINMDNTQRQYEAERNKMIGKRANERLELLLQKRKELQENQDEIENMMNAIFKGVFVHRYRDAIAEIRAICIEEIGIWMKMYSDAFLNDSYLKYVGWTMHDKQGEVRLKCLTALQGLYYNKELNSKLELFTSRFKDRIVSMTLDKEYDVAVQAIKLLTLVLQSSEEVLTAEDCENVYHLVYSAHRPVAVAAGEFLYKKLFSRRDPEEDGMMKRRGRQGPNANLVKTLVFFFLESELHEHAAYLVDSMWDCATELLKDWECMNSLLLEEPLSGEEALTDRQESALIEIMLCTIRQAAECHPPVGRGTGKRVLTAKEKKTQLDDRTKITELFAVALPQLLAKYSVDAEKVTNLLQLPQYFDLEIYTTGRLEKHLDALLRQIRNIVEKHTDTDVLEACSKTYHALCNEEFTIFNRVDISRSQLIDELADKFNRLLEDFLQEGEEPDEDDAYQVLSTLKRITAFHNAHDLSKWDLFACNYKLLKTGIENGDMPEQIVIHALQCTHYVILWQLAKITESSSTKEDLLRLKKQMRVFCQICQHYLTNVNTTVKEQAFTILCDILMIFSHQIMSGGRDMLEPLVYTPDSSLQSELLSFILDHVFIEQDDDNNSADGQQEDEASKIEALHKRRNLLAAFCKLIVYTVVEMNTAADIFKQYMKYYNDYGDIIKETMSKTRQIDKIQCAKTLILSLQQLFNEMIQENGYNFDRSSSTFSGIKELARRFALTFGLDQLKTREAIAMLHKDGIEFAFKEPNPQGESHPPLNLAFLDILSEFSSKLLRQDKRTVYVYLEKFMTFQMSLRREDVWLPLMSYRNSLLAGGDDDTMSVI; chain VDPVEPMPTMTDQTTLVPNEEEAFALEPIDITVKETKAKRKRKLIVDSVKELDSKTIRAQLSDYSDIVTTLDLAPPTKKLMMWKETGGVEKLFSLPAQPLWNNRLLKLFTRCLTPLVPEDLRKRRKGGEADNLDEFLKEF
B1: colicin N T and R domains (Escherichia coli); chain MGSNGADNAHNNAFGGGKNPGIGNTSGAGSNGSASSNRGNSNGWSWSNKPHKNDGFHSDGSYHITFHGDNNSKPKPGGNSGNRGNNGDGASAKVGEITITPDNSKPGRYISSNPEYSLLAKLIDAESIKGTEVYTFHTRKGQYVKVTVPDSNIDKMRVDYVNWKGPKYNNKLVKRFVSQFLL
UniProt O26157, sequence (whole entry, looked up): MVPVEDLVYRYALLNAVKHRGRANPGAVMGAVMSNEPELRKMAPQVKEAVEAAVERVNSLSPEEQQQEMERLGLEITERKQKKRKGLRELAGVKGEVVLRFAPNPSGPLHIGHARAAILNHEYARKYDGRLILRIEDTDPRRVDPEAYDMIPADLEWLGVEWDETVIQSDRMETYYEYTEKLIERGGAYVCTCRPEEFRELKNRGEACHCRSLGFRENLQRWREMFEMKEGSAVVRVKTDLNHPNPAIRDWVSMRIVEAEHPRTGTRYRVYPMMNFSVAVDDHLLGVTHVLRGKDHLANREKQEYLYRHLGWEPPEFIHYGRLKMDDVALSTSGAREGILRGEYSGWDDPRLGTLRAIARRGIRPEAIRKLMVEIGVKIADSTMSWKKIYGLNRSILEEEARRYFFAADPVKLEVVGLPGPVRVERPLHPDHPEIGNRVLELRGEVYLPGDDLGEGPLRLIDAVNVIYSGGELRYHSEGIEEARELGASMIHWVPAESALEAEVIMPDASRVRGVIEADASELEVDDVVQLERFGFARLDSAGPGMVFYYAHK
UniProt Q15109, sequence (whole entry, looked up): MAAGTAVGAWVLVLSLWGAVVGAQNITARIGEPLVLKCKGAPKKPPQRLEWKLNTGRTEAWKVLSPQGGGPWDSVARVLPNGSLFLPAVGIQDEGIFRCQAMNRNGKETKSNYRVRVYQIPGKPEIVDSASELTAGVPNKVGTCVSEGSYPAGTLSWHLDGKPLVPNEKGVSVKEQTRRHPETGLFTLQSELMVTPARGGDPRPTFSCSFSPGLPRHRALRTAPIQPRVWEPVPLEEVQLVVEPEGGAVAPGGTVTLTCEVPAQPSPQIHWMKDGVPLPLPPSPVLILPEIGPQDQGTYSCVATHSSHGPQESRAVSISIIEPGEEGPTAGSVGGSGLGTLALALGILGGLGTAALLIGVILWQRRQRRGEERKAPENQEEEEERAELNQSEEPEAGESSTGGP
UniProt O95166, sequence (whole entry, looked up): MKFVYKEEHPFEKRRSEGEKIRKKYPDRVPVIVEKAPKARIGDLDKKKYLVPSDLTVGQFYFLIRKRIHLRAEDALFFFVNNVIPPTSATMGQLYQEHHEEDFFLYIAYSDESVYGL
UniProt O15392, sequence (whole entry, looked up): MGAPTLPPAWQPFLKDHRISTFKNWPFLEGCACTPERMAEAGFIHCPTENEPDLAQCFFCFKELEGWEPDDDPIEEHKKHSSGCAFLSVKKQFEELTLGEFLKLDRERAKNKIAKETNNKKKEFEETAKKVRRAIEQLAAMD
UniProt P02931, sequence (whole entry, looked up): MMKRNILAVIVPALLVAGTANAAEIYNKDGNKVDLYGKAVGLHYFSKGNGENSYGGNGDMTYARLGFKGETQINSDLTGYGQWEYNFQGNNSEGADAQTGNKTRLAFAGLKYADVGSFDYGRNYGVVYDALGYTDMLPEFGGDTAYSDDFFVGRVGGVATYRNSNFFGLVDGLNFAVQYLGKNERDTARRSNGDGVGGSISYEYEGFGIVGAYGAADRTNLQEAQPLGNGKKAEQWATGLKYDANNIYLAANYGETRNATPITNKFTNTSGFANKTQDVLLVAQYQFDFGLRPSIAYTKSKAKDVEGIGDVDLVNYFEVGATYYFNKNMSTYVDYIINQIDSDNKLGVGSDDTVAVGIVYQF
UniProt Q9NZQ7, sequence (whole entry, looked up): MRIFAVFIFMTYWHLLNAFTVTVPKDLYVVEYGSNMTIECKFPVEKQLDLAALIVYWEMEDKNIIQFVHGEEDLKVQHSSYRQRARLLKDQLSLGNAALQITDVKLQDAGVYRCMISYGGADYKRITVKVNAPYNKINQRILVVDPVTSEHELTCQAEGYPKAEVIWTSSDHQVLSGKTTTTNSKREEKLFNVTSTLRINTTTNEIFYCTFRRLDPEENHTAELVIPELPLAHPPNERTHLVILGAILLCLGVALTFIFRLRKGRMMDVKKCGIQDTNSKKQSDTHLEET

Molecule | tested on | test | system | setting | quantity | value
RmS-3, glycosylated (Rhipicephalus microplus) | F11 factor XIa (Homo sapiens) | chromogenic substrate hydrolysis, inhibitor | – | 1 µM | protease inhibition | < 20%
CD24/Siglec-10 blocking peptide, D-amino acids | CD274 (Homo sapiens, UniProt Q9NZQ7) | MST | – | – | Kd | 7530 nM
gltX (Methanothermobacter thermautotrophicus, UniProt O26157) | GatD/GatE, Alexa Fluor 488 label (Methanothermobacter thermautotrophicus) | fluorescence polarisation | – | – | Kd | 40 nM
AHPHSDKLVPPR (designed peptide) | ALB (Homo sapiens, UniProt P02768) | ITC | peptide | pH 7.4, 25 °C, low c value | Kd | 46000 nM
CKTIYYLGYYNPNEYRY (designed peptide) | ERBB2 | SPR | peptide | – | Kd | 81.2 nM
{FITC}-QNTDDVQTSF-OH (ACE2 796-805 (Homo sapiens); N-terminal FITC; FITC = O=C1OC2(c3ccc(O)cc3Oc3cc(O)ccc32)c2ccc(NC(=S)*)cc21) | PDZK1 2-107 (Homo sapiens, UniProt Q5T2W1) | FP | peptide | – | Kd | 13900 nM
C3 fragment (Homo sapiens) | sbi fragment (Staphylococcus aureus) | SPR | – | NaCl 75 mM, half-physiological salt | Kd | 900 nM
CTCF fragment (Homo sapiens) (sequence not shown) | T1, STAG2/RAD21 STAG2 80-1060, RAD21 281-420 (Homo sapiens) | ITC | – | one-site fit | Kd | 620 nM
{FITC-Ahx}-LWGFLSRNKKPRICTREEF (NS5 NLS central peptide (dengue virus 1); N-terminal FITC, AHX linker; FITC = O=C1OC2(c3ccc(O)cc3Oc3cc(O)ccc32)c2ccc(NC(=S)*)cc21; Ahx = NCCCCCC(=O)O) | KPNA4 fragment (Homo sapiens) | fluorescence polarisation | peptide | pH 8, one-site fit | Kd | 400 ± 100 nM
B1 (colicin N T and R domains) | ompF mature, trimer (Escherichia coli, UniProt P02931) | ITC | – | 25 °C | Kd | 1600 nM
CHN2 fragment P53A | NCK1 fragment (Homo sapiens) | SPR | – | – | Kd | 3000 ± 2000 nM
CKKIPPLGWWNPNTWRY (designed peptide) | ERBB2 | SPR | peptide | – | Kd | 267 nM
DVKLEFFGFEDHETGGDEGGSGSSNYKIKYFGFDDLSESED (WAPL 423-463 (Homo sapiens, UniProt Q7Z5K2)) | T1, STAG2/RAD21 STAG2 80-1060, RAD21 281-420 (Homo sapiens) | ITC | peptide | one-site fit | Kd | 32800 nM
ACE2/pIgR VHH6 Fc fusion ACE2 , Fc at C-terminus (Homo sapiens) | PIGR (Homo sapiens, UniProt P01833) | BLI | – | – | Kd | 200000 nM
RmS-6, glycosylated (Rhipicephalus microplus) | F10 factor Xa (Bos taurus) | chromogenic substrate hydrolysis, inhibitor | – | 1 µM | protease inhibition | 32.8%
EKGEVEESEYVVITVRNEP (FNIP2 558-576 (Homo sapiens, UniProt Q9P278)) | GABARAP (Homo sapiens, UniProt O95166) | competition in solution, SPR | peptide | single-site fit | Kd | 6200 ± 3000 nM
DQK[Ac5c]MEF-NH2 (INCENP residues 16-22 cycloleucine substitution; C-amide; Ac5c = NC1(C(=O)O)CCCC1) | BIRC5 (Homo sapiens, UniProt O15392) | QCM | peptide | – | Kd | 97.1 nM
melittin | – | CD titration | POPC 50% POPG 50% vesicles | pH 7.0, 40 °C | free energy of partitioning | -7.82 kcal/mol
YGQEDIDVMGL (SAG residues 67-77 (Bos taurus)) | RHO Meta II, phosphorylated, retinal (Bos taurus, UniProt P02699) | Extra Meta II assay | peptide, native disc membranes | pH 8.0, 0 °C | Kd | 800000 nM
[dR][Dmt]KFGGMAPRGFSCLLLLTGEIDLPVKRRA-NH2 (peptide; D-Arg1/Dmt2/C-terminal amide; Dmt = Cc1cc(O)cc(C)c1C[C@H](N)C(=O)O) | Aβ42, FITC label (UniProt P05067) | MST | peptide | 10 min, 25 °C, with: FITC-Aβ42 50 nM | Kd | 55500 nM
LSQ[MG‑H1]FPKAE (ALB peptide 243-251 (Homo sapiens); MG-H1 at position 4) | AGER V domain 24-125 (Homo sapiens, UniProt Q15109) | tryptophan fluorescence titration | peptide | pH 6.5, NaCl 100 mM, single-site | Kd | 35 ± 4 nM

A few entries again:
Molecule | tested on | test | system | setting | quantity | value
YGQEDIDVMGL (SAG residues 67-77 (Bos taurus)) | RHO Meta II, phosphorylated, retinal (Bos taurus, UniProt P02699) | Extra Meta II assay | peptide, native disc membranes | pH 8.0, 0 °C | Kd | 800000 nM
RmS-6, glycosylated (Rhipicephalus microplus) | F10 factor Xa (Bos taurus) | chromogenic substrate hydrolysis, inhibitor | – | 1 µM | protease inhibition | 32.8%
B1 (colicin N T and R domains) | ompF mature, trimer (Escherichia coli, UniProt P02931) | ITC | – | 25 °C | Kd | 1600 nM
